Measured values of several laboratories.
Lines come from different studies, so protocols differ. “And” joins repeats or separate records; there may be more than shown.
PRKCB: Protein kinase C beta type (PRKCB, Homo sapiens, UniProt P05771)
PRKCB isoform beta-I: Protein kinase C beta type, isoform beta-I (PRKCB, Homo sapiens, UniProt P05771)
PRKCB isoform beta-II: Protein kinase C beta type, isoform beta-II (PRKCB, Homo sapiens, UniProt P05771)

C=CC(=O)N1Cc2nc(-c3cc(-c4cc(Cl)cnc4Cl)c(F)cc3F)n(-c3ccncn3)c2C1 has an inhibition of 1.2% (PRKCB; cell-free assay; 1 µM).
With CN1CCN(Cc2ccc(-c3ccc(CO[C@H]4CCC[C@@H]4NC(=O)c4cc(-c5cnn(C)c5)cnc4N)cc3)cc2)CC1 the inhibition was 2% (PRKCB; enzyme activity, inhibitor; 0.1 µM).
The remaining activity of Nc1ncc(-c2cc(-c3cnn(CC(F)(F)F)c3)ncc2F)nc1C(=O)NC1CNCC(F)C1 (stereo not drawn) is reported as 99.6% (PRKCB isoform beta-I; enzyme activity; 1 µM; relative to: DMSO control).
COc1ccc(NC(=O)Nc2ccc3c(c2)C(=O)N(C(C)CO)CC(C)C(CN(C)Cc2ccc4c(c2)OCO4)O3)cc1 (stereo not drawn) gave a remaining activity of 95% (PRKCB isoform beta-II; kinase activity, KinaseProfiler; 0.03 µM, species human; relative to: control).
For CN1CC[C@@H](COc2cnc(C#N)cc2-c2ccn3nc(NC(=O)C4CC4)cc3c2)C1, the inhibition was 5% (Protein kinase C beta type, beta-I isoform (PRKCB, Homo sapiens, UniProt P05771); kinase activity; 1 µM).
With COc1c(OCCCN2CCOCC2)ccc2c1N=C(NC(=O)c1cnc(N)nc1)N1CCN=C21 the remaining activity was 114% (PRKCB isoform beta-II; kinase activity, inhibitor; 1 µM; relative to: untreated control).
O=C(Cc1ccc(OCc2ccccc2)cc1)NC1(C(=O)O)CCN(C(=O)c2ccc(-c3cccc(Cl)c3)cc2)CC1 gave a remaining activity of 103% (PRKCB isoform beta-II; kinase activity, inhibitor; 10 µM, with: ATP at Km).
NC(=O)[C@@H](O)C[C@H]1CCc2sc3ncnc(O[C@H]4CC[C@H](N5CCOCC5)CC4)c3c21 has an inhibition of 8% (PRKCB isoform beta-I; radioisotope kinase; 10 µM).
CCn1cc(C(=O)O)c(=O)c2c(N)c(F)c(NC3CCCCC3)cc21 has an inhibition of 3.9% (PRKCB isoform beta-II; kinase activity; 0.1 µM, with: ATP at Km).
The remaining activity of CNC(=O)C[C@H](Cc1ccc(C#N)cc1)NC(=O)c1cc(-c2ccc(CN[C@H](C)c3ccc(C)cc3)o2)ccc1Cl is reported as 107% (PRKCB isoform beta-II; enzyme activity, KinaseProfiler panel; 1 µM).
For NC(=O)C[C@H]1CCc2sc3ncnc(O[C@H]4CC[C@H](N5CCOCC5)CC4)c3c21, the inhibition was 9% (PRKCB isoform beta-II; radioisotope kinase; 10 µM).
Cc1cccc(O[C@H]2CCC[C@@H](C(C)CNCc3ccncc3)C2)c1 (relative stereo) gave an inhibition of -8% (PRKCB isoform beta-II; kinome profiling; 10 µM).
O=C=[N][Ru-4]123([n]4c5ccc(O)cc5c5c6c(c7cc(F)c[n+]1c7c54)C(=O)NC6=O)[S+]1CC[S+]2CC[S+]3CC1 (stereo not drawn) has a remaining activity of 99% (PRKCB isoform beta-I; enzyme activity; 100 nM, human enzyme, with: 10 µM ATP; relative to: untreated).
With COCC12C(=O)NC3C4(C(OC)CC1O)C1CC5(O)C(OC)C(O)C(OC(C)=O)(C1C5OC(=O)c1ccccc1)C3(O)C(OC)C24 (stereo not drawn) the remaining activity was 91% and 96% (PRKCB isoform beta-II; kinase activity, inhibitor, ProQinase kinase profiling; 25 µM; relative to: control).
For C=CC(=O)Nc1cccc(-c2cnc3[nH]cc(C(=O)NC(C)(C)C)c3n2)c1, the inhibition was -3% and 1% (PRKCB isoform beta-I; kinase activity, inhibitor, kinase panel; 0.1 µM).

Some of these lines once more:
With COCC12C(=O)NC3C4(C(OC)CC1O)C1CC5(O)C(OC)C(O)C(OC(C)=O)(C1C5OC(=O)c1ccccc1)C3(O)C(OC)C24 (stereo not drawn) the remaining activity was 91% and 96% (PRKCB isoform beta-II; kinase activity, inhibitor, ProQinase kinase profiling; 25 µM; relative to: control).
For C=CC(=O)Nc1cccc(-c2cnc3[nH]cc(C(=O)NC(C)(C)C)c3n2)c1, the inhibition was -3% and 1% (PRKCB isoform beta-I; kinase activity, inhibitor, kinase panel; 0.1 µM).
